Published values collected from several papers.
Each line is one published result; not all experiments were run side by side. “And” joins repeats or separate records; there may be more than shown. ± marks the error that the study gave.
SLCO1B1: Solute carrier organic anion transporter family member 1B1 (SLCO1B1, Homo sapiens, UniProt Q9Y6L6)
Sequence of UniProt Q9Y6L6 (whole entry, looked up): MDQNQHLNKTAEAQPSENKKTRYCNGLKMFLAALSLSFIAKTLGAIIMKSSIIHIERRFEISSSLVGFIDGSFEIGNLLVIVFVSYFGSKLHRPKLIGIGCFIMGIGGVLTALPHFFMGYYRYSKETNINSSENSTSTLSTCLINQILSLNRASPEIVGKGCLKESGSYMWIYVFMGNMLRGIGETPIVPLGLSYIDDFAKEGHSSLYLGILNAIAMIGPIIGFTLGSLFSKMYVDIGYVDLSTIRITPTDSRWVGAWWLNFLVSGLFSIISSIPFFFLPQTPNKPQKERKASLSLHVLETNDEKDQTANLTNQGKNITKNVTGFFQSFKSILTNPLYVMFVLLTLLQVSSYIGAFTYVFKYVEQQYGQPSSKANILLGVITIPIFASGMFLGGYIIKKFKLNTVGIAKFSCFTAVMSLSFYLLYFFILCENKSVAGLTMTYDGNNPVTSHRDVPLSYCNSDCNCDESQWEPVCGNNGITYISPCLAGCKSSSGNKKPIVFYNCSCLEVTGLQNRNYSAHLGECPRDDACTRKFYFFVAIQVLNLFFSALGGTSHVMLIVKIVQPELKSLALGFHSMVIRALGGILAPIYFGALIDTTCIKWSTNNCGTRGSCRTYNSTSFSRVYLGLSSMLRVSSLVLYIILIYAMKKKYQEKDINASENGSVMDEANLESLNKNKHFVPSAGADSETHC
ALB: Albumin (ALB, Bos taurus, UniProt P02769)
Sequence of UniProt P05177 (whole entry, looked up): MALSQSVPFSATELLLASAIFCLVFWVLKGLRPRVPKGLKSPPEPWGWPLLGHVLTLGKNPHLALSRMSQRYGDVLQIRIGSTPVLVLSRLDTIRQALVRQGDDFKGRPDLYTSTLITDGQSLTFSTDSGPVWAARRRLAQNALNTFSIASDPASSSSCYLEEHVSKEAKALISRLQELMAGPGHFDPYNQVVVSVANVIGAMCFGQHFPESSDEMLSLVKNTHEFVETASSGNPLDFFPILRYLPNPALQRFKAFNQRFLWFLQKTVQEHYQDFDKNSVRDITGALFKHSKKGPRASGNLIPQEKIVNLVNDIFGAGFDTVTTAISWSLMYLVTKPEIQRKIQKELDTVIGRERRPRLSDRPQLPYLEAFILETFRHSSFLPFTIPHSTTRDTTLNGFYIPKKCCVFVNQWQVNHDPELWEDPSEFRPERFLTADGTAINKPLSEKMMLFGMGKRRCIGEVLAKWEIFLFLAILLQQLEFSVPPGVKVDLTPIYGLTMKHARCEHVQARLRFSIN
Sequence of UniProt P02769 (whole entry, looked up): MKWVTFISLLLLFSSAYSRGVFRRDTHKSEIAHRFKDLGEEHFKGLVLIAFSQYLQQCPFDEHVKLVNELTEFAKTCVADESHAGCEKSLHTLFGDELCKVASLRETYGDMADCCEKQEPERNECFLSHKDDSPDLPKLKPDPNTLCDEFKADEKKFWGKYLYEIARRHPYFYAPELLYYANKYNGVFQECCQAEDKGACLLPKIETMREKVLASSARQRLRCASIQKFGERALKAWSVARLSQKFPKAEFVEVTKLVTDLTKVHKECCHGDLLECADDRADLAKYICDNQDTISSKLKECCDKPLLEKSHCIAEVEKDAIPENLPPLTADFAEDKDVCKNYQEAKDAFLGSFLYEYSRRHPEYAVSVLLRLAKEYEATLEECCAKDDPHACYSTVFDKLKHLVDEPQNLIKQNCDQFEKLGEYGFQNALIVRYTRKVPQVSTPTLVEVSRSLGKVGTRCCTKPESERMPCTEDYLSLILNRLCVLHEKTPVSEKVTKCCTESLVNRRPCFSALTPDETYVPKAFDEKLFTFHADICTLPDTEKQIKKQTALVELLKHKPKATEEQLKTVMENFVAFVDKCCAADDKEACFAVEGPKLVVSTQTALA

O=C(c1ccc(OCCN2CCCCC2)cc1)c1c(-c2ccc(O)cc2)sc2cc(O[C@@H]3O[C@H](C(=O)O)[C@@H](O)[C@H](O)[C@H]3O)ccc12  intrinsic clearance (SLCO1B1; substrate; HEK293 expressing SLCO1B1; pH 7.4): 0.259 µL/min/mg protein
CN1CCN(c2ccc3[nH]c(-c4ccc5[nH]c(-c6ccc(OCCCCNC(=O)c7ccc8c(c7)C(=O)OC87c8ccc(N(C)C)cc8C(C)(C)c8cc(N(C)C)ccc87)cc6)nc5c4)nc3c2)CC1  Kd (ALB; binding, fluorescence titration; PBS; 1 h): 334 ± 70 µM
O=c1[nH]c2cccnc2n1-c1ccc2c(c1)OC1(CCCCC1)O2  efflux ratio (P-glycoprotein, rat): 0.8
CN1CCN(c2ccc3[nH]c(-c4ccc5[nH]c(-c6ccc(OCCCCNC(=O)c7ccc8c(c7)C7(OC8=O)c8ccc(N(C)C)cc8C(C)(C)c8cc(N(C)C)ccc87)cc6)nc5c4)nc3c2)CC1  Kd (ALB; binding, fluorescence titration; PBS; 1 h): 136 ± 17 µM
O=C(c1ccc(OCCN2CCCCC2)cc1)c1c(-c2ccc(O[C@@H]3O[C@H](C(=O)O)[C@@H](O)[C@H](O)[C@H]3O)cc2)sc2cc(O)ccc12  intrinsic clearance (SLCO1B1; substrate; HEK293 expressing SLCO1B1; pH 7.4): 2.21 µL/min/mg protein
Cc1ncc2[nH]c(=O)n(-c3cnc(Oc4cccc5c4C(C)(C)CO5)c(Cl)c3C)c2n1  efflux ratio (P-glycoprotein, rat): 14.2
CCN(CC)c1ccc(-c2oc3cc4ccccc4cc3c(=O)c2O)cc1  CO release quantum yield decrease (ALB; with: BSA, 40 eq; baseline: without BSA): 5 fold
CN(C)c1ccc2c(c1)[Si](C)(C)c1cc(N(C)C)ccc1C21OC(=O)c2ccc(C(=O)O)cc21  Kd (ALB; binding, fluorescence titration; PBS): 9.9 ± 0.5 µM
CO[C@@H]1[C@H](OP(=O)(O)OC[C@H]2O[C@@H](n3cnc4c(=O)[nH]c(N)nc43)[C@H](O)[C@@H]2O)[C@@H](COP(=O)(O)OP(=O)([O-])O[P@](O)(=S)OC[C@H]2O[C@@H](n3c[n+](C)c4c(=O)[nH]c(N)nc43)[C@H](O)[C@@H]2O)O[C@H]1n1cnc2c(N)ncnc21  decapping susceptibility (m7GpppN-mRNA hydrolase (DCP2, Homo sapiens, UniProt Q8IU60); substrate; short capped RNA; baseline: AG-CleanCap RNA): no effect
CNC(=O)C1CCCN(C(=O)C2CC3CCC2N3C(=O)[C@@H]2C[C@@H](O)CN2C(=O)NCc2cccc(Cl)c2F)C1 (mixture of isomers)  remaining activity (Cytochrome P450 1A2 (CYP1A2, Homo sapiens, UniProt P05177); preincubation with NADPH; human; 0.206 µM; baseline: negative control): 114% and 104% and 95.1%
CN1CCN(c2ccc3[nH]c(-c4ccc5[nH]c(-c6ccc(OCCCCNC(=O)c7ccc8c(c7)C(=O)OC87c8ccc(N(C)C)cc8[Si](C)(C)c8cc(N(C)C)ccc87)cc6)nc5c4)nc3c2)CC1  Kd (ALB; binding, fluorescence titration; PBS; 1 h): 299 ± 77 µM
O=C(Nc1cc(-c2ccnc3[nH]ccc23)c(Cl)cn1)[C@H]1CCC[C@@H](NC(=O)C(F)(F)F)C1  efflux ratio (P-glycoprotein (MDR1); MDCK-MDR1 cells; baseline: B-A over A-B Papp): 2.4

A few entries again:
O=c1[nH]c2cccnc2n1-c1ccc2c(c1)OC1(CCCCC1)O2  efflux ratio (P-glycoprotein, rat): 0.8
